Published values gathered from unrelated publications.
Lines come from different studies, so protocols differ. “And” joins repeats or separate records; there may be more than shown.
CDK2 with cyclin A: Cyclin-dependent kinase 2, with cyclin A (CDK2, Homo sapiens, UniProt P24941)

With `O=C(COc1ccccc1[N+](=O)[O-])Nc1ccccc1N1CCOCC1` the Kd was > 100 µM (CDK2 with cyclin A).
`NC(=O)c1cnc2[nH]ccc2c1N[C@@H]1[C@@H]2CC3C[C@H]1C[C@@](O)(C3)C2` — result for “CD8+ effector memory change”: 0.03% (flow cytometry; Japanese healthy men, blood; oral, 10 mg twice daily, 72 h after day 7 dose; baseline: baseline).
Under “log2 fold change”, `Cn1cc(-c2ccc(-c3cncc(Cl)c3N3CCC4(CCNC4=O)CC3)cc2)cn1` is recorded as 1.8 (COLO 205; gene expression, microarray, measured: SLC2A5 (GLUT5) mRNA; concentration not given, 6 h; baseline: untreated cells).
`Cc1n[nH]c2ccc(-c3cc(OC[C@@H](N)Cc4ccccc4)cnc3-c3ccoc3)cc12` — result for “log2 fold change”: -0.0346 (orf19.6492 kinase Candida albicans; MIB/MS competition binding; Candida albicans cell lysate; 1 µM; baseline: DMSO, lower = stronger binding).
With `COc1cc(C(=O)NS(=O)(=O)c2ccccc2C)ccc1Cc1cn(C)c2ccc(NC(=O)OC3CCCC3)cc12` the inhibition was 90.5% and 94.3% and 94% and 83.3% and 92.4% (native VRAC; ion current, inhibitor, whole-cell patch clamp; wild-type HCT cells; 30 µM, pH 6.0, extracellular pH).
`N#Cc1ccc2c(-c3ccncc3)c(-c3ccc(F)cc3)nn2c1` — result for “log2 fold change”: -0.168 (orf19.4518 kinase Candida albicans; MIB/MS competition binding; Candida albicans cell lysate; 1 µM; baseline: DMSO, lower = stronger binding).
Under “log2 fold change”, `Oc1ccccc1-c1n[nH]cc1-c1ccnc2ccccc12` is recorded as -0.31 (RIM15 (Candida albicans); kinase binding, MIB/MS competition; Candida albicans lysate; 1 µM; baseline: DMSO).
`CC(C)n1ncc2c(C(=O)NCC3(C)CNC3)cc(C3CC3)nc21` gave a cell protection of 21.9% and 19% (coxsackievirus B3; CPE; Vero; 0.15 µM).
The Kd of `COc1ccc(-n2c(SCC(N)=O)nnc2-c2cccs2)cc1` is reported as > 100 µM (CDK2 with cyclin A).
With `O=C(O)CNC(=O)Cc1ccccc1` the sarcomere length was 1.72 µm (ventricular cardiomyocytes, C57BL/6 mouse; dose not given, 0.396 s).
`COc1ccc(-c2ncn(S(=O)(=O)c3cc(C(F)(F)F)cc(C(F)(F)F)c3)n2)cc1`: “pseudo-first-order rate constant” 0.6 h⁻¹ (reaction with N-acetyl-lysine, HPLC-MS; pH 10.2, added: N-α-acetyl-lysine).
Under “log2 fold change”, `N#Cc1ccn2c(-c3ccncc3)c(-c3ccc(F)cc3)nc2c1` is recorded as 0.0316 (orf19.4144 kinase Candida albicans; MIB/MS competition binding; Candida albicans cell lysate; 10 µM; baseline: DMSO, lower = stronger binding).
`c1coc(-c2n[nH]cc2-c2ccnc3ccccc23)c1`: “log2 fold change” 0.63 (RIM15 (Candida albicans); kinase binding, MIB/MS competition; Candida albicans lysate; 10 µM; baseline: DMSO).
Under “log2 fold change”, `c1ccc(-c2n[nH]cc2-c2ccnc3ccccc23)nc1` is recorded as 1.53 (orf19.6492 kinase Candida albicans; MIB/MS competition binding; Candida albicans cell lysate; 1 µM; baseline: DMSO, lower = stronger binding).
With `CC(C)NCC(O)c1ccc(O)c(O)c1` (stereo not drawn) the sarcomere length was 1.65 µm (ventricular cardiomyocytes, C57BL/6 mouse; dose not given, 0.132 s).

Excerpt of the above:
The Kd of `COc1ccc(-n2c(SCC(N)=O)nnc2-c2cccs2)cc1` is reported as > 100 µM (CDK2 with cyclin A).
With `O=C(O)CNC(=O)Cc1ccccc1` the sarcomere length was 1.72 µm (ventricular cardiomyocytes, C57BL/6 mouse; dose not given, 0.396 s).
